Measurements collected from several papers.
Each numbered part is a random draw from the data of one study; scales do not carry over between parts.

Series 1
Target: Histone acetyltransferase KAT6A, both winged helices, GST fusion (KAT6A, Homo sapiens, UniProt Q92794, residues 1-181)
Technique: protein binding microarray
Molecule type: double-stranded DNA, one strand shown
Matrix: in vitro
Concentration: not given
Notes: 8-mer, flanks averaged, mean of 2 arrays, mostly near background
Relative to: not given
Direction: higher = stronger binding
Quantity: E-score
Construct (chain): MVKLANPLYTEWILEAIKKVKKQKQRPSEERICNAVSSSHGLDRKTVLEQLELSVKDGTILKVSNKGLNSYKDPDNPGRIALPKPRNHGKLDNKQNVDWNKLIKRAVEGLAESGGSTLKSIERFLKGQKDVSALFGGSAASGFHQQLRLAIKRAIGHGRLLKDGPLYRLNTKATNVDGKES
ACGGTACA: 0.154
TAACCACA: -0.0724
GGAGTTAC: -0.0374
GCCCAAGC: 0.079
AATAATTC: 0.102
GCCACCAC: -0.0799
GACTGAAA: -0.0302
GACTGACC: 0.0208
ACAGCCCG: 0.0491
ATGTCGTA: -0.163
ACGACCCC: -0.0281
AGGATGTC: -0.0536
CAACCGAA: 0.0371
ATAAGGGG: -0.198
CTATGGCA: -0.0903
ACGGAAAA: 0.211
ATATTGGG: -0.0448
ACTTGTCG: 0.025
AGGTAGAG: -0.171
CCGGTGCG: 0.263
GAAGCCGC: 0.27
TAAACCCA: -0.291
GTTCATGA: -0.0716
CCTTTTGA: -0.12
AACAATTG: -0.0721

Series 2
Target: RING finger protein unkempt homolog, zinc fingers 1-6, GST-SBP tag (UNK, Homo sapiens, UniProt Q9C0B0, residues 30-357)
Technique: RNA Bind-n-Seq
Molecule type: RNA
Matrix: in vitro
Concentration: not given
Notes: RNA with constant flanks, human-mouse chimeric sites, ends assumed
Relative to: input RNA pool
Direction: higher = stronger binding
Quantity: bound/input enrichment
All sequences stand within: GGGAGUUCUACAGUCCGACGAUC … CAACAGAGGAUUGAGCAUCA
Target sequence (chain): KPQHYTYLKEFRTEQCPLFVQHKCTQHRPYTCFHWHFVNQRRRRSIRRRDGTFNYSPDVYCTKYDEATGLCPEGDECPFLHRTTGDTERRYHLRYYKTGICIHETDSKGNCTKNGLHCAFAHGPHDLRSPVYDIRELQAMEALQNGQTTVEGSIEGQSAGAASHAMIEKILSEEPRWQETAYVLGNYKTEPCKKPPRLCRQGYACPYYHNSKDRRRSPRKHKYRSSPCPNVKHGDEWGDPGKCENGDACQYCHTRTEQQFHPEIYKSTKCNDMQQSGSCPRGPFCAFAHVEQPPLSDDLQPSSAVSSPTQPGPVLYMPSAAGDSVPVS
CUCGGCACCGGCACGCUUUACAUCGCUGAGAGCCGCCUGUCCUGGUUAGAUGGUUCGGGAUUAGGAUUCUCACUGGAAUACCCCACCAUUAGUUUACAUGCAUUAUCCAGGGAUCCAAAC: 1.87 ratio
UCCCAAAUCCAGCAGCUAGAAGGAGCCUUGAGACAAAGCCUGGAAAUACAGGGAAGGCAAUAGCUUUGUACAUUGGUUUACAUUUUUUCCCCCUGUGGAUUUUUCUAGAGGUCAUAGUGC: 1.61 ratio
AAAGAUCUACUGAGGCAAGGCAGCAAAUUUAGGAGAGACAUUUCAACAAUAUUGAUAGAGUUAGGAUUCCAAAUUAAAAAGAAAACUAAGACAUUAUACAUCAACAAAGCCAAUAUCUGG: 6.78 ratio
CACACACUCUUCUGCGGGACCCUCAUCUUGCAGGCCCGAGCCUACGUGGGACCGCACGUCCUGGCAGUGGUGACCCGCACAGGGUUCUGCACGGCAAAAGGGGGCCUGGUGAGCUCCAUC: 0.0658 ratio
AUAGAUGAAAUUGAUGUAGAUCAGGAAGGAAUUGCUGAAAUGAUCCUGGAUGAAAAUGCUAUAGCUCAGGUCCCACGCCCUGGCACAUCUUUGAAGCUCCCUGGCACUAACCAAACAGGA: 0.478 ratio
GCUCUUGGCAAUGUAAUCAGCGCCUUGGGGGACAAGAGCAAGAGAGCCACCCAUGUCCCUUACAGAGAUUCCAAGCUGACAAGACUCUUGCAGGAUUCCCUUGGGGGUAACAGCCAAACC: 0.068 ratio
GUGACAGGUGUUAAGAUUUCCCCUCAGCAAAGAAGUGCAGUAGUCACCAUAAUUCCAUCUGUGGUGAAUGCCAAUCAGAUUGUGGAGCUGGUCCCAGACCUCAGUUUAGACAUGGGAACU: 0.276 ratio
CAACAGAGUCUAGGAUGGGUUCAUUACAUGAUUCAUGAGCCAGAACCGCAUAUUCUUCUCUUUAGACGACCUCUUCCAAAAGAACAACAAAAAUGAAGUUUAUCUGGGAUCAUCUAAUCU: 0.149 ratio
CAGGGCAUCAUCUCUCGUGCUGUUAGACACCUGUUCAAGAGUAUUGAUGAGAAAAAGACCUCAGCGAUUAAAAACGGGCUGCCCCCUCCAGAUUUUAAAGUGAAUGCCCAGUUCCUAGAG: 0.348 ratio
CACAGAGGAGACCUCCUGUUCCUCACGAAUUUCCGGGAAGACCCAAUCAGAGCUGGUGAAAUAGUUGUUUUUAAGGUUGAAGGAAGAGACAUUCCGAUAGUUCACAGAGUAAUCAAGGUU: 1.23 ratio
CAACCUCAGAGCCCAGACUUCCUGGAUAUCACCAACCCUAAAGCGGUAUUAGAAAAUGCAUUGAGAAACUUCGCCUGUCUGACGACUGGAGAUGUGAUUGCUAUCAACUACAAUGAGAAG: 0.386 ratio

Series 3
Target: Centromere-binding protein 1, full length, N-terminal tag (CBF1, Saccharomyces cerevisiae, UniProt P17106, residues 1-351)
Chain of UniProt P17106 (whole entry, looked up): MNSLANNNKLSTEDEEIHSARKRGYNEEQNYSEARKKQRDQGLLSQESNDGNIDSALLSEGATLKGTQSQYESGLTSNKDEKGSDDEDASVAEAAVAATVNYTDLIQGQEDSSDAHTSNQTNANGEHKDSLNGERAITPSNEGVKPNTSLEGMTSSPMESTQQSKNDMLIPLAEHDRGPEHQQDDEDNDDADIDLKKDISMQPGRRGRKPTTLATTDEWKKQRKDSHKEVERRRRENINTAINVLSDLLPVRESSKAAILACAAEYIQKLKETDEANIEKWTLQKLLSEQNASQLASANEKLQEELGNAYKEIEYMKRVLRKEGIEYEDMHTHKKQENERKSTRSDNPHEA
Technique: protein-binding microarray
Molecule type: double-stranded DNA, one strand shown
Matrix: in vitro
Concentration: 0.8 µM
Notes: whole 60-bp probe, no competitor
Direction: higher = stronger binding
Quantity: fluorescence intensity
All sequences stand within: … GTCTTGATTCGCTTGACGCTGCTG
GAAGTTATACTAATCTTGGTGATGGAATGAGTATAG: 524 a.u.
GAACAATGGATGATTGCTGATGTACGCAATAGTTAG: 548 a.u.
GAAAGCTCTCCCCCCCACACGTGATAGCCTTTCTAG: 3070 a.u.
GAAAGGTGAGTTCGTCATCAGTCATCTGACGTATAG: 1870 a.u.
GAACTTATCACGTGACACGTGTGCGGCAAATTTTAG: 31300 a.u.
GAATCAGGTGAATCATGTGGGACTGAAGAGAGGTAG: 879 a.u.
GAATTACAGTGGCCTCCGGTCACCTCGAGTTAGTAG: 471 a.u.
GAAGTAATAGTGGATGACGTGAATAGCAACAAATAG: 610 a.u.
CTATTAAAAAAAAATCACGTGGTGCAAAAAAAATTC: 16500 a.u.
CTAACACCCACCCAGATCGTGATTTTTGTTACCTTC: 549 a.u.
GAAATACAATATGCGCTCGTGCTTCTTTAATGTTAG: 795 a.u.
GAAAACAAATAACATCACGATGCACGAGCACTGTAG: 831 a.u.
CTAGCAGTTGGCCAGCACGTTCAGAACCCCGTATTC: 518 a.u.
CTAATTCTTATACATGTGACTAACCGATATTACTTC: 4500 a.u.
CTAGCTTGCAGAAGTCACCTTCTCTTTTCCGTTTTC: 522 a.u.
CTATAAAAAGAGTGGCATGTGAACTGCCTACCGTTC: 594 a.u.
CTATCAAACCGAAATCAGCAGACATTTTATTGTTTC: 663 a.u.

Series 4
Target: RNA binding protein fox-1 homolog 2, RRM domain, GST-SBP tag (RBFOX2, Homo sapiens, UniProt O43251-10, residues 100-194)
Technique: RNA Bind-n-Seq
Molecule type: RNA
Matrix: in vitro
Concentration: 365 nM
Notes: natural RNA segment, single round, ends assumed
Relative to: no-protein control
Direction: higher = stronger binding
Quantity: RBNS enrichment (R)
All sequences stand within: GGGAGUUCUACAGUCCGACGAUC … UGGAAUUCUCGGGUGCCAA
Target sequence (chain): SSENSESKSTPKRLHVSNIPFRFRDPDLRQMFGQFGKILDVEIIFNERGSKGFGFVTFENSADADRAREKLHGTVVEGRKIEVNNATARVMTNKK
ACUGUAUCUUAUUUGAUGAUAUUUAUUUUCUCUGCCAAGCUGUAUAGUAAAAGGAAAAUAAGUCACAUCUGGUCAUUGGCAUUUGUAUCGUCAUUCUGUAAAGACAAAAG: 0.279
GCCCCUGCAGUGUCCUUCGUUCACUAGACAUUGCGCCUGGCUUGCUGUGGGUGGGGAUGAGUUGCUUGACUCAUGUUUAGACGCAUGGUUCUGUCUGGUGAUUGAGGUGC: 4.92
UGGUAAUAUCUCAAAGAAAUGAACUUGUAGAUUACCAAGCAGUUUGCUAAAAAUUCAAUCUUUGACCCAAGCUGUAGCAUUUUUUUUUCAUGUGUGGCAUCUUUUUCAUG: 1.25
CAACACGAGAGUGGUACUGGUUUCAUGUGCGAGGACUUCCAUGGACUGAACAUGGAUGCCGGAGCAGAGCAUCAAUUCCUUCAUAGAUUCCAAGUCACUCCUCGAUGAAG: 0.663
GACCUGAUUAAAAUGAAGGGAUUUAAUCGUUGUUAAAGUUAAGUUAGUCAAAUAAAUUACCUACUGGAAUAUAGCCCAAGCCAGUAAAGGUUUAAUAUUUGCAUUUUCGU: 0.485
UUUGCACUUACAAAAUCAUGUAAAUAUGUCACAUUUUGUUUAACAUUAUUUUUCCAAGUGUUUAGGUAAUAAUGUAUUACUUUGAAUUCAGAUUAAUGUUCUACUACUUG: 0.321
GGGAGUGUCAGGCCUGGAGUCCACAGCCUCACCUGCUGCUGUAGCUGUCAGCUGGACCUGGUGGCUUGUGGUUGAUGGUCACUAUUAGUGGGUGAGUGGGGAUGACCUGG: 0.915
UGGCGGAGUGAAGCUCAGCUCGGUGGUCGCUCAGAGCAGCCAGUGGUCCCCUCUGCUCUGUUCCCUCCUCCUGUGGGAAGGGACUCGGAAGCUUGUCUGCCCCUCACCAG: 0.264
AAUAAAUAUUUGAAAUGCUUCUGAUUUUUCAUUUUCAUUUAAAAACAUUAAAUUAAAUGUAAUGAGACCAAUUUGUGGUUUAUAUUAUGGAAAAAGAGGAGAAAAUUAUA: 0.817
UUUUAAAGUUGGGCUUUUUAAUUACUUUACAAAUACCCAUGAGUGGGACAGAUGUUCUGAACCUGGACCACAGGCCUUCCUGCUAGGCUUGCAGCCCACGGUGCACAUCU: 0.203
AUUUUAAAAUUUAUAAACAAGUCACUUAAAUGCCAGUUGUCUGAAAAAUCUUAUAAGGUUUUACCCUUGAUACGGAAUUUACACAGGUAGGGAGUGUUUAGUGGACAAUA: 0.566
UGCCUAGGUCCUAAAACAGUAAGAAAGAAACGUUUUCAUGCUUCUGGCCAGGAAUCCUGGGUCUGCAACUUUGGAAAACUCCUCUUCACAUAACAAUUUCAUCCAAUUCA: 0.358

Some of these lines once more (series 3):
GAACAATGGATGATTGCTGATGTACGCAATAGTTAG: 548 a.u.
GAAAGCTCTCCCCCCCACACGTGATAGCCTTTCTAG: 3070 a.u.
GAAAGGTGAGTTCGTCATCAGTCATCTGACGTATAG: 1870 a.u.
GAACTTATCACGTGACACGTGTGCGGCAAATTTTAG: 31300 a.u.
